Published values from different studies.
UniProt O75385, sequence (whole entry, looked up): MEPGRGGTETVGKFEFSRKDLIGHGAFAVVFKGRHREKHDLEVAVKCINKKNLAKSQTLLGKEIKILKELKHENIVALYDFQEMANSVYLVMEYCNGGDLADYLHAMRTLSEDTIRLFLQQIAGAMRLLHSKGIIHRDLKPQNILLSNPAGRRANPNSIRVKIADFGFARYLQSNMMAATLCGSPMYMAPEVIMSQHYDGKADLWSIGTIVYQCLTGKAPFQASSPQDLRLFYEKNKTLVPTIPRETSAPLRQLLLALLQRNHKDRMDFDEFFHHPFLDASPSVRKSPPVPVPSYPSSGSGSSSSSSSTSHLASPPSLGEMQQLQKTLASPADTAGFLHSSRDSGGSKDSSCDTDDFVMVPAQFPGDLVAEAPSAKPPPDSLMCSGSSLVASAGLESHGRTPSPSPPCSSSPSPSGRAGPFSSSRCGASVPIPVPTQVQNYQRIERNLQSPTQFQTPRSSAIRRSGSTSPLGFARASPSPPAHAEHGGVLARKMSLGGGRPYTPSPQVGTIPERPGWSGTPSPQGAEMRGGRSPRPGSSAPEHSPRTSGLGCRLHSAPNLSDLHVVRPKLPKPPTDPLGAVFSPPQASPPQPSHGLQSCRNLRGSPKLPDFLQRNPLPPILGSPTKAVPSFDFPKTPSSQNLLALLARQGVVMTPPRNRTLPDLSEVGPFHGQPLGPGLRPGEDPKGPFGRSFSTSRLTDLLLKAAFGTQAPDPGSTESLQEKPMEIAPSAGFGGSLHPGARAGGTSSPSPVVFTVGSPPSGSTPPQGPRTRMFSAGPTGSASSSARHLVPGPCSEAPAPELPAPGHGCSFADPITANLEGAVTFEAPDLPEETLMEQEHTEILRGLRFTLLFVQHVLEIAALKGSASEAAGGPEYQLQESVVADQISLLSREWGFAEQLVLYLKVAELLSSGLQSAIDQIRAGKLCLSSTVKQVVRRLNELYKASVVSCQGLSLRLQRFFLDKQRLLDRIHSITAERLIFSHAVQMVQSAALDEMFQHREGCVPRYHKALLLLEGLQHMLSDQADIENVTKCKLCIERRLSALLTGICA

CN(C)C(=O)CN1CCN(c2cnc3c(cc(C(=O)NCc4ccc(Cl)cc4)c(=O)n3CC(=O)N3CC(C)(F)C3)n2)C1=O — viability (MRC5; cell growth or viability, CCK-8; 40 µM): 112%
CCN1CCc2c(sc3[nH]c(=O)n(O)c(=O)c23)C1 — viability (HFF; cell growth or viability, MTS; 10 µM, 7 days): 106%
CC(C)n1ncc2c(C(=O)NCC3(C)CNC3)cc(C3CC3)nc21 — viability (HeLa; cell growth or viability, neutral red; 9.2 µM): 97.3%
O=S(=O)(NNc1nnc(Cl)c2ccccc12)c1ccc(F)cc1 — viability (Vero; cell growth or viability, MTT; 125 µg/mL): 52.7%
O=c1[nH]c2cc(-c3ccccc3)ccc2c(=O)n1O — viability (HFF; cell growth or viability, MTS; 10 µM, 7 days): 94%
COc1ccc(NC(=O)NCc2cn(Cc3ccc(C)cc3)nn2)cc1 — viability (L02; cell growth or viability, CCK-8; 50 µM, 72 h): 127%
COc1cc(/C=C/C(=O)C(=Cc2ccc(O)cc2)C(=O)/C=C/c2ccc(O)c(OC)c2)ccc1O — viability (WRL68; cell growth or viability, MTT; 49.5 µg/mL, 48 h): 80.3%
COc1cccc(NC(=O)Nc2ccc(Oc3nc4ccccc4n4cnnc34)cc2)c1 — viability (WISH; cell growth or viability, MTT; 12.5 µM, 24 h): 98.3%
COC(=O)COc1c(Cc2cc(C(C)(C)CC(C)(C)C)cc(-n3nc4ccccc4n3)c2OCC(=O)OC)cc(C(C)(C)CC(C)(C)C)cc1-n1nc2ccccc2n1 — viability (HeLa; cell growth or viability, MTT; 10 µM, 24 h): 44.9%
CN1CCN(c2cnc3c(cc(C(=O)NCc4ccc(Cl)cc4)c(=O)n3CC(=O)N3CC(C)(F)C3)n2)C1=O — viability (MRC5; cell growth or viability, CCK-8; 40 µM): 90%
CC(=O)Nc1ccc(O)cc1 — viability (THLE-2; cell growth or viability, MTT; 100 µM, 96 h): 15%
O=c1[nH]c2c3c(sc2c(=O)n1O)CCCC3 — viability (HFF; cell growth or viability, MTS; 10 µM, 7 days): 128%
COc1ccc(NC(=O)Nc2cccc(-c3cn(Cc4ccc(Cl)cc4)nn3)c2)cc1 — viability (L02; cell growth or viability, CCK-8; 50 µM, 72 h): 120%
O=c1[nH]c2sc3c(c2c(=O)n1O)CCCC3 — viability (HFF; cell growth or viability, MTS; 10 µM, 7 days): 68%
CNc1ncc2c(/C=C/C(=O)N3CCC(OC)CC3)nn(Cc3cccc(C(F)(F)F)c3)c2n1 — remaining activity (Cyclin-dependent kinase 2, with cyclin E1 (CDK2, Homo sapiens, UniProt P24941); enzyme activity, inhibitor, radiometric; 1 µM): 100%
COc1cc(-c2cncc3c2CN(C)Cc2cc(N4CCNCC4)ccc2-3)cc(OC)c1OC — remaining activity (ULK1 (Homo sapiens, UniProt O75385); enzyme activity, inhibitor; 1 µM): 110%
CC1(F)CN(C(=O)Cn2c(=O)c(C(=O)NCc3ccc(Cl)cc3)cc3nccnc32)C1 — viability (MRC5; cell growth or viability, CCK-8; 40 µM): 100%
CCNc1nc(Nc2ccc(F)c(Cl)c2)c2ccccc2n1 — viability (Vero; cell growth or viability, MTT; 1000 µg/mL): 2.63%
COc1ccc(NC(=O)Nc2ccc(-c3cn(Cc4ccc(Cl)cc4)nn3)cc2)cc1 — viability (L02; cell growth or viability, CCK-8; 50 µM, 72 h): 106%
O=C1c2ccccc2C(c2ccccc2)C(=O)N1OCc1ccccc1 (stereo not shown) — viability (HFF; cell growth or viability, MTS; 10 µM, 7 days): 129%
COc1cccc2c1C(=O)c1c(O)c3c(c(O)c1C2=O)C[C@@](O)(C(=O)CO)C[C@@H]3O[C@H]1C[C@H](N)[C@H](O)[C@H](C)O1 — viability (SW480; cell growth or viability, MTT; 50 µg/mL): 24.5%
O=C(Nc1ccc(Cl)cc1)Nc1cccc(-c2cn(Cc3cccc(Br)c3)nn2)c1 — viability (L02; cell growth or viability, CCK-8; 50 µM, 72 h): 87.5%
COc1cc(/C=C/C(=O)C(=Cc2ccccc2)C(=O)/C=C/c2ccc(O)c(OC)c2)ccc1O — viability (WRL68; cell growth or viability, MTT; 0.8 µg/mL, 48 h): 10.8%
CC1(F)CN(C(=O)Cn2c(=O)c(C(=O)NCc3ccc(Cl)cc3)cc3nc(N4CCNC4=O)cnc32)C1 — viability (MRC5; cell growth or viability, CCK-8; 40 µM): 91%
Cn1cnc2c1c(=O)n(CC(=O)Nc1c(Cl)cccc1Cl)c(=O)n2C — viability (Vero; cell growth or viability, MTT; 31.25 µg/mL): 99.7%
COc1cc(/C=C2\CC/C(=C\c3ccc(O)c(OC)c3)C2=O)ccc1O — viability (WRL68; cell growth or viability, MTT; 25 µg/mL, 48 h): 13.8%
Nc1ccn([C@@H]2O[C@H](CO)[C@@H](O)C2(F)F)c(=O)n1 — viability (MDA-MB-231; cell growth or viability, MTT; 10 µg/mL, 48 h): 34.4%
COc1ccc(NC(=O)Nc2cccc(-c3cn(Cc4ccccc4C)nn3)c2)cc1 — viability (L02; cell growth or viability, CCK-8; 50 µM, 72 h): 114%
O=c1[nH]c2sccc2c(=O)n1O — viability (HFF; cell growth or viability, MTS; 10 µM, 7 days): 103%
Cc1ccc(S(=O)(=O)NNc2ccc([N+](=O)[O-])cc2[N+](=O)[O-])cc1 — viability (HEK293; cell growth or viability, MTT; 125 µg/mL): 79.6%
O=C1c2ccccc2C(c2ccccc2)C(=O)N1O (stereo not shown) — viability (HFF; cell growth or viability, MTS; 10 µM, 7 days): 98%
Cc1ccc(S(=O)(=O)[N](Nc2ccc([N+](=O)[O-])cc2[N+](=O)[O-])[Sn]([Cl])[Cl])cc1 — viability (HEK293; cell growth or viability, MTT; 3.91 µg/mL): 93.3%
O=c1[nH]c2sc3c(c2c(=O)n1O)CCC3 — viability (HFF; cell growth or viability, MTS; 10 µM, 7 days): 76%
CNC(=O)c1cc(Oc2ccc(NC(=O)Nc3ccc(Cl)c(C(F)(F)F)c3)cc2)ccn1 — viability (WISH; cell growth or viability, MTT; 50 µM, 24 h): 27.1%
